{"data": "Values quoted from earlier work that unrelated publications cite", "note": "Protocols differ between the studies behind these lines. Numbers after ± are the reported error.", "sequence of UniProt Q99755 (whole entry, looked up)": "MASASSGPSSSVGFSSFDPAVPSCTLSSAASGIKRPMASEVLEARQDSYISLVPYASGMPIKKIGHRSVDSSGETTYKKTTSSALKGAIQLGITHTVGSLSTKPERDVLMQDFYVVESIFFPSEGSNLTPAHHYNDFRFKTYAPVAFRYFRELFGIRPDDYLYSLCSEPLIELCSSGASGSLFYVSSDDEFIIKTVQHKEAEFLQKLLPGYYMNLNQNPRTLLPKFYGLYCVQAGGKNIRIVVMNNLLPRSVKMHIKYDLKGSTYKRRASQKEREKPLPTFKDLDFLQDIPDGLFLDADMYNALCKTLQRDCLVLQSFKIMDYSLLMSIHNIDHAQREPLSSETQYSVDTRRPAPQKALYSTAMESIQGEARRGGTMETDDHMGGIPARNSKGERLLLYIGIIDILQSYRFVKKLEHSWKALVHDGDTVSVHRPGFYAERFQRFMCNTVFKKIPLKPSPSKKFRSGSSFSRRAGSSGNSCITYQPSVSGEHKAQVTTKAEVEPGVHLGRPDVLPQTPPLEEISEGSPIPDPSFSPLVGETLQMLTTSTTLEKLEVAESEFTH"}
{"Structure (SMILES)": "Nc1cccc2c1C(=O)N(C1CCC(=O)NC1=O)C2=O (centres unmarked)", "test system": "relapsed refractory multiple myeloma patients", "setting": "dose not given, trial", "endpoint": "partial response rate", "result": "13%"}
{"Structure (SMILES)": "CC1(C)CCC(CN2CCN(c3ccc(C(=O)NS(=O)(=O)c4ccc(NCC5CCOCC5)c([N+](=O)[O-])c4)c(Oc4cnc5[nH]ccc5c4)c3)CC2)=C(c2ccc(Cl)cc2)C1", "test system": "human, previously untreated elderly AML", "setting": "dose not given, sample C patients, with: azacitidine or decitabine", "endpoint": "remission rate", "result": "61%"}
{"Structure (SMILES)": "Cc1oncc1C(=O)Nc1ccc(C(F)(F)F)cc1", "test": "mitochondrial membrane potential disruption, Tox21 HTS", "endpoint": "AC50", "result": "10.1 µM"}
{"Structure (SMILES)": "Cc1ccc(Nc2nccc(N(C)c3ccc4c(C)n(C)nc4c3)n2)cc1S(N)(=O)=O", "test system": "human epithelioid sarcoma patients", "setting": "dose not given", "endpoint": "overall response rate", "result": "0 to 22%"}
{"Structure (SMILES)": "COC[C@@H](c1ccc(C(F)(F)F)cc1)N1CCN(C2(C)CCN(C(=O)c3c(C)ncnc3C)CC2)C[C@@H]1C", "test system": "treatment-naive HIV patients", "setting": "10 mg twice daily, day 14, monotherapy without ritonavir", "endpoint": "HIV RNA reduction", "result": "1.08 log copies/mL"}
{"Structure (SMILES)": "COc1ccccc1[C@H](Cn1c(=O)n(C(C)(C)C(=O)O)c(=O)c2c(C)c(-c3ncco3)sc21)OC1CCOCC1", "test": "hepatic de novo lipogenesis, inhibitor", "test system": "rat", "endpoint": "ED50", "result": "0.18 mg/kg"}
{"Structure (SMILES)": "Cc1ccc(Nc2nccc(N(C)c3ccc4c(C)n(C)nc4c3)n2)cc1S(N)(=O)=O", "test system": "paediatric sarcoma patients", "setting": "dose not given", "endpoint": "patients with stable disease", "result": "52.6%"}
{"Structure (SMILES)": "CNC(C)C1CCC(N)C(OC2C(N)CC(N)C(OC3OCC(C)(O)C(NC)C3O)C2O)O1 (centres unmarked)", "tested on": "Enterobacter cloacae", "test system": "clinical isolate RKI-No_5/14", "endpoint": "MIC", "result": "2 µg/mL"}
{"Structure (SMILES)": "Cc1cncc(C)n1", "test system": "human, water", "endpoint": "odour detection threshold", "result": "1500 µg/kg"}
{"Structure (SMILES)": "CC(F)(F)c1cc(F)ccc1-c1sc2cc(O)ccc2c1Oc1ccc(/C=C/C(=O)O)cc1", "test system": "MCF7, mouse, MCF7 orthotopic xenograft", "setting": "10 mg/kg once daily, day 62, single agent", "endpoint": "%T/C", "result": "13%"}
{"Structure (SMILES)": "CNC[C@H](O)[C@@H](O)[C@H](O)[C@H](O)CO.O=C([O-])CN1CCN(CC(=O)[O-])CCN(CC(=O)O)CCN(CC(=O)[O-])CC1.[Gd+3]", "test system": "saline", "setting": "310 K, 1.41 T", "endpoint": "relaxivity r1", "result": "3.2 mM⁻¹ s⁻¹"}
{"Structure (SMILES)": "OCc1ccc(O[C@@H]2O[C@H](CO)[C@@H](O)[C@H](O)[C@H]2O)cc1", "test system": "human surgical patients", "setting": "iv infusion, 600 mg twice daily", "how to read": "relative to: placebo", "endpoint": "relative risk of delirium", "result": 0.54}
{"Structure (SMILES)": "CCc1cc2c(cc1CC)CC(NC[C@H](O)c1ccc(O)c3[nH]c(=O)ccc13)C2", "test system": "COPD patients", "setting": "inhaled, 150 µg once daily, 24 h postdose, dosing day 182", "how to read": "relative to: baseline", "endpoint": "placebo-corrected trough FEV1 change", "result": "160 mL"}
{"Structure (SMILES)": "Nc1cc(C(F)(F)F)c(-c2nc(N3CCOCC3)nc(N3CCOCC3)n2)cn1", "tested on": "PIP5K1A (Homo sapiens, UniProt Q99755)", "test": "enzyme activity", "setting": "10 µM", "how to read": "relative to: untreated", "endpoint": "remaining activity", "result": "82%"}
{"Structure (SMILES)": "COC(=O)C1=C(C)NC(C)=C(C(=O)OC)C1c1c(Cl)nc2sc(C)cn12", "test": "calcium-induced contraction", "test system": "guinea pig aortic strip", "setting": "50 µM, with: K+ 80 mM depolarisation", "endpoint": "inhibition", "result": "19 ± 1.3%"}
{"Structure (SMILES)": "CC1(C)S[C@@H]2[C@H](NC(=O)[C@H](N)c3ccccc3)C(=O)N2[C@H]1C(=O)O", "tested on": "Enterobacter cloacae", "test system": "clinical isolate RKI-No_308/13", "endpoint": "MIC", "result": "> 16 µg/mL"}
{"Structure (SMILES)": "CCc1nccnc1OC", "test system": "human, water", "endpoint": "odour detection threshold", "result": "0.43 µg/kg"}
{"Structure (SMILES)": "C[N+]1(C)[C@@H]2C[C@@H](OC(=O)C(O)(c3cccs3)c3cccs3)C[C@H]1[C@@H]1O[C@@H]12", "test system": "COPD patients", "setting": "inhaled, 36 µg once daily, 6 h postdose, dosing day 7", "how to read": "relative to: baseline", "endpoint": "placebo-corrected trough FEV1 change", "result": "150 mL"}
{"Structure (SMILES)": "C=C1[C@H](CO)[C@@H](O)C[C@@H]1n1cnc2c(=O)[nH]c(N)nc21", "test system": "chronic hepatitis B patients", "setting": "dose not given, 48 months, with: lamivudine", "how to read": "relative to: baseline", "endpoint": "HBsAg reduction", "result": "0.14 log10 IU/mL"}
{"Structure (SMILES)": "COc1cc(/C=C/C(=O)O)ccc1O", "test": "antioxidant effect", "test system": "rat CLP sepsis", "setting": "intraperitoneal", "endpoint": "effective dose", "result": "100 mg/kg"}
{"Structure (SMILES)": "Nc1cc(C(F)(F)F)c(-c2cc(N3CCOCC3)nc(N3CCOCC3)n2)cn1", "test system": "human endometrial cancer patients", "setting": "dose not given, trial", "endpoint": "median progression-free survival", "result": "4.5 months"}
{"Structure (SMILES)": "Cc1cc(-c2nccc3c2ccn3CC(=O)Nc2ccc(-c3cnccn3)cn2)ccn1", "test system": "mouse, bleomycin-induced pulmonary fibrosis, lung", "setting": "oral, 25 mg/kg once daily, days 7-21", "endpoint": "WNT pathway gene expression", "result": "decreased"}
{"Structure (SMILES)": "O=C(NCc1ncccc1F)c1coc(CCNCCc2nc3ccccc3[nH]2)n1", "test": "item: serum iron", "test system": "healthy human, serum", "setting": "dose not given", "how to read": "mean level", "endpoint": "time to rebound above baseline", "result": "≤ 24 h"}
